Measurements gathered from unrelated publications.
Each line is one published result; not all experiments were run side by side. ± gives the spread as reported.
gag-pol reverse transcriptase: Gag-Pol polyprotein, reverse transcriptase (gag-pol, Human immunodeficiency virus 1, UniProt P03366)
Cytochrome P450 2A13: Cytochrome P450 2A13 (Homo sapiens, UniProt Q16696)
Sequence of UniProt Q16696 (whole entry, looked up): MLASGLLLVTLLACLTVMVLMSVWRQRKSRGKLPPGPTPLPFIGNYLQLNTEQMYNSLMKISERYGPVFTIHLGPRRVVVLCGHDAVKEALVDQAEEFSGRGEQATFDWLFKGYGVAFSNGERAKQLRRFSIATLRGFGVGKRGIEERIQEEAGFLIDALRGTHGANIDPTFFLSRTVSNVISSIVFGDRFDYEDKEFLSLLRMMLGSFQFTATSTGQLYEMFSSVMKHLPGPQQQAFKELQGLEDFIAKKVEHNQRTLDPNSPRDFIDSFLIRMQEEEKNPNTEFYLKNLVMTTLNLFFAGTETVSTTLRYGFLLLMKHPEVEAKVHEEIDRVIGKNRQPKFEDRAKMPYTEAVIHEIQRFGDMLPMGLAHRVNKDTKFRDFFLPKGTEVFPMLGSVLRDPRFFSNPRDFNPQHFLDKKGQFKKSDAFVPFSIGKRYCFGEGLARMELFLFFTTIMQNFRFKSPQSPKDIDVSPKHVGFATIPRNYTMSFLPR
Sequence of UniProt Q05940 (whole entry, looked up): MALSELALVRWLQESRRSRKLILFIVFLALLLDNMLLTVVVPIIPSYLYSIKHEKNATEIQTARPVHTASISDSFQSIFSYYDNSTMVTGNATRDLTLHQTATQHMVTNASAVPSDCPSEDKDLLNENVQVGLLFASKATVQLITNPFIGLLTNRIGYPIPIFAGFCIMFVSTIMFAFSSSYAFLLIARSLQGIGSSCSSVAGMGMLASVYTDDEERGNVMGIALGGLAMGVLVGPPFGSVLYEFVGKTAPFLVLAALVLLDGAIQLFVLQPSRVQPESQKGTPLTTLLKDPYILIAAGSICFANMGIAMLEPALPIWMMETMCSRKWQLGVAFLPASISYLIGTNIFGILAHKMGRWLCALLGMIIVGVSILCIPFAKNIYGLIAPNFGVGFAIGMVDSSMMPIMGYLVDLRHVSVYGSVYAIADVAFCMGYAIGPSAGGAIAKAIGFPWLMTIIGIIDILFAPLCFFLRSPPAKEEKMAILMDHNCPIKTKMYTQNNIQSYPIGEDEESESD
Sequence of UniProt P33535 (whole entry, looked up): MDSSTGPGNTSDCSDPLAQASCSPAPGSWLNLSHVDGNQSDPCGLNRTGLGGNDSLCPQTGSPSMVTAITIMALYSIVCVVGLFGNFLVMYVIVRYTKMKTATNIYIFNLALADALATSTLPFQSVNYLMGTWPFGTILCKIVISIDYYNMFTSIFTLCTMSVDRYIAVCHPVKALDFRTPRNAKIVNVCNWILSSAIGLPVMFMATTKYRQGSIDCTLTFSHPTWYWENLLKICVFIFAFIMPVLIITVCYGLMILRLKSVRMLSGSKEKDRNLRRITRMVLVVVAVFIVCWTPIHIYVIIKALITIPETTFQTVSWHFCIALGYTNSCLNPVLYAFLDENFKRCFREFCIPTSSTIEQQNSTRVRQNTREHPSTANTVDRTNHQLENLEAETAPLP
Sequence of UniProt P0AC78 (whole entry, looked up): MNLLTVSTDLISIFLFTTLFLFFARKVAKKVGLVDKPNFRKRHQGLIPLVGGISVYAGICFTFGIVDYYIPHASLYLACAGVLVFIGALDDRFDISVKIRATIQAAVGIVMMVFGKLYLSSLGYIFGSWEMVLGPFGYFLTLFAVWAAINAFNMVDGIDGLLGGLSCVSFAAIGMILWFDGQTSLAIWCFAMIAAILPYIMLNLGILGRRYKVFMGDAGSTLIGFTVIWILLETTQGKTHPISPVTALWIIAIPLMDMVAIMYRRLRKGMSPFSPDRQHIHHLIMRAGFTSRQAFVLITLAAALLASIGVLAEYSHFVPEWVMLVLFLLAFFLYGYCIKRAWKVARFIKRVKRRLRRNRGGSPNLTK
Sequence of UniProt O15111 (whole entry, looked up): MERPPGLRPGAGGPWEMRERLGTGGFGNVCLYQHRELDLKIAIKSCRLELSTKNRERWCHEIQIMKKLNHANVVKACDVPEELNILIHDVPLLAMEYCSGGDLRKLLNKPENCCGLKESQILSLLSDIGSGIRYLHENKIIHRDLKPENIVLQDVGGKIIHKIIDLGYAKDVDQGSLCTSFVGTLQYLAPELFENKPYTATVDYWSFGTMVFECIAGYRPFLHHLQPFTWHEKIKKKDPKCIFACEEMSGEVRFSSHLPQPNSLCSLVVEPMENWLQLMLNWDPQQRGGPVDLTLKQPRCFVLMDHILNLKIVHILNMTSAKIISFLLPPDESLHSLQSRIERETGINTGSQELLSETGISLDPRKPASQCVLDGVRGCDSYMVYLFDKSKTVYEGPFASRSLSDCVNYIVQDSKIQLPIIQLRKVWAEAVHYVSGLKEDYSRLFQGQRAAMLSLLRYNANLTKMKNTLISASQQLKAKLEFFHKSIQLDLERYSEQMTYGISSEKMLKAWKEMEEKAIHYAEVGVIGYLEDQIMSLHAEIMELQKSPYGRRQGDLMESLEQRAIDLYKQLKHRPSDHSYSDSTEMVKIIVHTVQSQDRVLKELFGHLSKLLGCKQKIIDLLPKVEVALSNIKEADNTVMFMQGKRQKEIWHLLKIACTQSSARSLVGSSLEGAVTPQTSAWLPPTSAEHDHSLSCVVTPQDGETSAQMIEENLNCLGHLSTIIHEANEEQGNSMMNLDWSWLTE
Sequence of UniProt Q99436 (whole entry, looked up): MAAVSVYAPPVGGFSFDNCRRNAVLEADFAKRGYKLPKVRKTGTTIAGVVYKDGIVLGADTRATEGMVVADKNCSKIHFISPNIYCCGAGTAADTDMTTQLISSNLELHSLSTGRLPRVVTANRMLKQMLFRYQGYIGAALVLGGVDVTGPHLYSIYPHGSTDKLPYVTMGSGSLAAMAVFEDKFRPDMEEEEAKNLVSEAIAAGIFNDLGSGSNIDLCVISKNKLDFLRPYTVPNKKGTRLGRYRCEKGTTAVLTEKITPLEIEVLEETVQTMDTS
Sequence of UniProt O75874 (whole entry, unmodified, looked up): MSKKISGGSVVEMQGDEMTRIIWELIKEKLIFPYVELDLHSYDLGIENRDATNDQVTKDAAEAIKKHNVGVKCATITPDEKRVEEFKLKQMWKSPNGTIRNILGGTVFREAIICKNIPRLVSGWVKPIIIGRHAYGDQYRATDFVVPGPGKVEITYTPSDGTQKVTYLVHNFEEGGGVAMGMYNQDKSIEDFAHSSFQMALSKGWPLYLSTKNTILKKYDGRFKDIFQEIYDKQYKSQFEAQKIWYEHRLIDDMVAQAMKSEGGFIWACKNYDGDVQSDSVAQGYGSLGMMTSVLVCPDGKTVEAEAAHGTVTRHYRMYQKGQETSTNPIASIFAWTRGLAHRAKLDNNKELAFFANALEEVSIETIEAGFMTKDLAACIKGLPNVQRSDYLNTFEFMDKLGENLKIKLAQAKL
Sequence of UniProt P21964 (whole entry, looked up): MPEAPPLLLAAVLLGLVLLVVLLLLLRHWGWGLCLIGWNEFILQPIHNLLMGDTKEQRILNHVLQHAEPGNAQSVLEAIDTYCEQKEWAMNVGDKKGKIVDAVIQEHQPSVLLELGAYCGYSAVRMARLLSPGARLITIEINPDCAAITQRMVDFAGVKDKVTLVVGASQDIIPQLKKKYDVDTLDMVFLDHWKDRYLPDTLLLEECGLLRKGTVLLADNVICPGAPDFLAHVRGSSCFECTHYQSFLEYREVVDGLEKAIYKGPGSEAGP
Sequence of UniProt O15151 (whole entry, looked up): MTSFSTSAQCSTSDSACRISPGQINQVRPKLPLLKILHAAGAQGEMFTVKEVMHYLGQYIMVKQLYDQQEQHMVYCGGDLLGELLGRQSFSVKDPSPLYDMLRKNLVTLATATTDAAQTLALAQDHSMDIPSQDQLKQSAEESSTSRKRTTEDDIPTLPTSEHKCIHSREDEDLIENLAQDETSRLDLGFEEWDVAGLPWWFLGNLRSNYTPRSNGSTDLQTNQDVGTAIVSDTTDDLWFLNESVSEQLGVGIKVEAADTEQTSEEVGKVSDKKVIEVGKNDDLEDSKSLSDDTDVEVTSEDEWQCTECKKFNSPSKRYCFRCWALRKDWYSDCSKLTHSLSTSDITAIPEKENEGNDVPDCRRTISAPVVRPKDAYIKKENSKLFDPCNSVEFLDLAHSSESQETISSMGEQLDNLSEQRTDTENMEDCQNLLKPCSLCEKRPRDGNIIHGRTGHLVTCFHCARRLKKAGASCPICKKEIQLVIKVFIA
Sequence of UniProt P15207 (whole entry, looked up): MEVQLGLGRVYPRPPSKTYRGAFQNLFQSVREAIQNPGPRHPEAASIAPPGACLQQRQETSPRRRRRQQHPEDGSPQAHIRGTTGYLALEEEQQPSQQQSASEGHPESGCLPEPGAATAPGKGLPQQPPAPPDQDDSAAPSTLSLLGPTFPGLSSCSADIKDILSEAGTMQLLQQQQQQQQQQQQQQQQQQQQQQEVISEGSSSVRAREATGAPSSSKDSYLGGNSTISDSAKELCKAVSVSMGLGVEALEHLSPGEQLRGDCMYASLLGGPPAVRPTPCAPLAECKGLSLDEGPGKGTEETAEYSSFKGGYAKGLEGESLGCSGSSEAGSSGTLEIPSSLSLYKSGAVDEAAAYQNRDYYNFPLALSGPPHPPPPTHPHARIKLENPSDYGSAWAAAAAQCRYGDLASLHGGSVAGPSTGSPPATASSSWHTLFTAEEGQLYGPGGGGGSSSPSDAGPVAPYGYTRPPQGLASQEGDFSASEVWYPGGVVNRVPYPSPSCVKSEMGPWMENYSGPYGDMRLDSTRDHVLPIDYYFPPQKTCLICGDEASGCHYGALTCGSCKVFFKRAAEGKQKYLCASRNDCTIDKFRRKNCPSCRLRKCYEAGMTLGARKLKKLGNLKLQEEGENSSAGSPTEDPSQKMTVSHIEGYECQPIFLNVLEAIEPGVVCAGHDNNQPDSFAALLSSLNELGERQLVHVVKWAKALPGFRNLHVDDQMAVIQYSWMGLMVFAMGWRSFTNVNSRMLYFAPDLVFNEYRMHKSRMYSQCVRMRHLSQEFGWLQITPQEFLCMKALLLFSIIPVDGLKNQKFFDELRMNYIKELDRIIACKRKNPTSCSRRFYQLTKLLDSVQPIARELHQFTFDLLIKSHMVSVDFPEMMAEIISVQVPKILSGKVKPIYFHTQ

| SMILES | target | test | system | setting | IC50 [nM] |
| --- | --- | --- | --- | --- | --- |
| C[C@H]1CN(c2n[nH]c3nc(N[C@H]4CC[C@H](NS(=O)(=O)CCC(F)(F)F)CC4)ncc23)CCO1 | Inhibitor of nuclear factor kappa-B kinase subunit alpha (CHUK, Homo sapiens, UniProt O15111) | biochemical |  |  | ≥ 20000 |
| O=C(CCl)N1CCC(C(O)(c2ccccc2)c2ccccc2)CC1 | Isocitrate dehydrogenase [NADP] cytoplasmic (IDH1, Homo sapiens, UniProt O75874, R132H) | probe labelling, covalent inhibitor, gel-based competitive ABPP | MDA-MB-231 lysate | added: IA-rhodamine | 9200 |
| CCCC[C@@H](NC(=O)[C@@H](N)Cc1c(C)cc(O)cc1C)C(=O)NCC(=O)N[C@@H](Cc1ccc(F)cc1)C(=O)N(C)CCC[C@@]1(c2ccc(F)cc2)OCc2cc(C#N)ccc21 | Mu-type opioid receptor (Oprm1, Rattus norvegicus, UniProt P33535) |  |  |  | 2.24 |
| O=C1CSC(c2c(Cl)cccc2Cl)N1c1nc(-c2ccc(S(=O)(=O)N3CCOCC3)cc2)cs1 (centres unmarked) | gag-pol reverse transcriptase |  |  |  | > 4000 |
| O=c1c(O)c(-c2ccccc2)oc2cc(O)cc(O)c12 | Cytochrome P450 2A13 | enzyme activity, inhibitor |  | 20 min, pH 7.4 | 30000 to 90000 |
| COc1ccc(C[C@H](NC(=O)[C@H](C)NC(=O)CN2CCOCC2)C(=O)N[C@@H](CCC2CCCCC2)C(=O)[C@@]2(C)CO2)cc1 | Proteasome subunit beta type-7 (PSMB7, Homo sapiens, UniProt Q99436) | inhibitor, competitive ABPP | Raji cell lysate | constitutive proteasome β2c | > 10000 |
| CC(C)C[C@H](NC(=O)[C@H](CCC(=O)O)NC(=O)[C@H](CCC(=O)O)NC(=O)[C@H](CCC(N)=O)NC(=O)[C@H](CCC(=O)O)NC(=O)[C@@H](N)CC(C)C)C(=O)N[C@@H](CC(=O)O)C(=O)N[C@@H](CCCCN)C(=O)N[C@@H](CC(N)=O)C(=O)O | Uncharacterized protein (Equus caballus, UniProt Q38RB9) | peptide binding, competitor, competitive radioligand binding | purified horse MHC class I | pH 7 | 90 |
| C#Cc1cc2cccc3ccc4cccc1c4c32 | Cytochrome P450 2A13 | enzyme activity, inhibitor |  | 20 min, pH 7.4 | > 80000 |
| COc1cc(Nc2ncc(F)c(Nc3ccc4c(n3)NC(=O)C(C)(C)O4)n2)cc(OC)c1OC | Catechol O-methyltransferase (COMT, Homo sapiens, UniProt P21964) | enzyme activity, inhibitor |  |  | > 10000 |
| COc1cc2c(cc1OC)C1CC(=O)C(CC(C)C)CN1CC2 (centres unmarked) | Synaptic vesicular amine transporter (SLC18A2, Homo sapiens, UniProt Q05940) | inhibitor |  |  | 54 |
| CO[C@H]1[C@H](O[C@H]([C@H]2O[C@@H](n3ccc(=O)[nH]c3=O)[C@H](O)[C@@H]2O)[C@H](NCCCNC(=O)[C@@H](NC(=O)[C@@H](NC(=O)N[C@H](C(=O)O)C(C)C)[C@@H]2CCN=C(N)N2)[C@@H](O)C(C)C)C(=O)O)O[C@H](CN)[C@H]1O | Undecaprenyl-phosphate alpha-N-acetylglucosaminyl 1-phosphate transferase (wecA, Escherichia coli, UniProt P0AC78) | enzyme activity, inhibitor |  |  | 660 ± 15 |
| N#Cc1ccc(Nc2ncc(Cc3c(F)cc(-c4ccc(O)cc4)cc3F)o2)cc1 | gag-pol reverse transcriptase | enzyme activity, inhibitor | HIV-1 |  | > 1000 |
| C[C@@H]1[C@@H](c2ccc(Cl)cc2)SC(=O)N1C(=O)NC1CCCCC1 | Androgen receptor (Ar, Rattus norvegicus, UniProt P15207) | binding, competitive ligand binding |  |  | > 100000 |
| CC(=O)N[C@@H](CCCCN)C(=O)N[C@H](C(=O)N[C@@H](Cc1ccccc1)C(=O)N[C@H]1CSCCCCCCS[C@H]2C[C@@H](C(N)=O)N(C2)C(=O)NC[C@H](CC(C)C)NC(=O)NC[C@H](CC(C)C)NC(=O)[C@H](C)NC(=O)[C@H](Cc2c[nH]c3ccccc23)NC(=O)[C@H](Cc2ccc(O)cc2)NC(=O)[C@H](CCC(=O)O)NC1=O)[C@@H](C)O | Protein Mdm4, with p53 (MDM4, Homo sapiens, UniProt O15151) | p53 binding, TR-FRET |  |  | 63.3 |

Repeated from above:
| SMILES | target | test | system | setting | IC50 [nM] |
| --- | --- | --- | --- | --- | --- |
| C[C@H]1CN(c2n[nH]c3nc(N[C@H]4CC[C@H](NS(=O)(=O)CCC(F)(F)F)CC4)ncc23)CCO1 | Inhibitor of nuclear factor kappa-B kinase subunit alpha (CHUK, Homo sapiens, UniProt O15111) | biochemical |  |  | ≥ 20000 |
